{"data": "Published values collected from several papers", "note": "Parts stem from different laboratories: compare values within a part only. Changes are numbered by the printed parent chain."}
{"data": "Study 1", "target": "CCNE2, cyclin fold, Cln2 fusion (human)", "technique": "yeast growth competition, sequencing", "sample": "yeast", "notes": "strong parent motif", "reference": "not given", "direction": "higher = stronger binding", "parent": "SCAPER docking peptide (human); SNARRSLNFGGST; partner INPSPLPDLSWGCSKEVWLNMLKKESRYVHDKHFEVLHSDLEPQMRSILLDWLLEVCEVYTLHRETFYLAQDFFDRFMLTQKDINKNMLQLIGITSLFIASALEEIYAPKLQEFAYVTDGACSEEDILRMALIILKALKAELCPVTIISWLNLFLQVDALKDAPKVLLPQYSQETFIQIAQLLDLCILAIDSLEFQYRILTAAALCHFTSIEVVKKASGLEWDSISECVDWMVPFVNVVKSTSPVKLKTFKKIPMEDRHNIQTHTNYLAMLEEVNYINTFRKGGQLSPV"}
{"Change": "SNARRSLNFGDST [G11D]", "normalised enrichment score": 1.34}
{"Change": "SNARPSLNFGGST [R5P]", "normalised enrichment score": 0.139}
{"Change": "SNARRSLNFGPST [G11P]", "normalised enrichment score": 0.855}
{"Change": "WNARRSLNFGGST [S1W]", "normalised enrichment score": 1.61}
{"Change": "SNAQRSLNFGGST [R4Q]", "normalised enrichment score": -0.239}
{"Change": "SNARRQLNFGGST [S6Q]", "normalised enrichment score": 4.74}
{"Change": "SNARWSLNFGGST [R5W]", "normalised enrichment score": -0.00779}
{"Change": "TNARRSLNFGGST [S1T]", "normalised enrichment score": 1.71}
{"Change": "SNARRSLNFGGGT [S12G]", "normalised enrichment score": 1.63}
{"Change": "STARRSLNFGGST [N2T]", "normalised enrichment score": 1.18}
{"data": "Study 2", "target": "Interferon regulatory factor 5, full length, phosphomimetic (IRF5, Homo sapiens, UniProt Q13568-2, residues 1-514, K96S/S451D/S453D/S456D/S462D)", "technique": "protein-binding microarray", "form": "double-stranded DNA, one strand shown", "sample": "in vitro", "tested at": "250 nM", "notes": "60-bp whole probe", "together with": "salmon DNA 0.4 mg/ml", "reference": "random background probes", "direction": "higher = stronger binding", "all sequences stand within": "GCCTAGCAC … GTCTTGATTCGCTTGACGCTGCTG"}
{"Oligonucleotide": "TTAGGTATCGACCCTGGGTTAGTGCTA", "log fluorescence [z-score]": 1.63}
{"Oligonucleotide": "TTAGATTTTAGACTGGATTAGTGCTAG", "log fluorescence [z-score]": 0.113}
{"Oligonucleotide": "GACGGACTGGGGTTTCGGGACGTGCTA", "log fluorescence [z-score]": 1.21}
{"Oligonucleotide": "GACGGTTTCGGTATCGTGACGTGCTAG", "log fluorescence [z-score]": 9.46}
{"Oligonucleotide": "AGAGTCACCCATCTCAGCAAGTGCTAG", "log fluorescence [z-score]": -0.598}
{"Oligonucleotide": "GCTCCTTTTAATTTTTAACGGTGCTAG", "log fluorescence [z-score]": 0.606}
{"Oligonucleotide": "GACGGTATCCTTGTCCTGACGTGCTAG", "log fluorescence [z-score]": -0.152}
{"Oligonucleotide": "TTTGGTATCGACTTTCGGTTAGTGCTA", "log fluorescence [z-score]": 10.6}
{"Oligonucleotide": "TTAGGTTTCGACACTGGGTTAGTGCTA", "log fluorescence [z-score]": 5.56}
{"Oligonucleotide": "TTAGATCTCACTATCGATTAGTGCTAG", "log fluorescence [z-score]": 7.77}
{"Oligonucleotide": "GACGCTATCCTTATCCTGACGTGCTAG", "log fluorescence [z-score]": -0.0139}
{"Oligonucleotide": "GGAGGAGCGGGACTGCCACCGTGCTAG", "log fluorescence [z-score]": -0.911}
{"Oligonucleotide": "TTAGATTCCCTTTTCCTTTAGTGCTAG", "log fluorescence [z-score]": 0.865}
{"Oligonucleotide": "ACAAATGGCCAACAAACATTGTGCTAG", "log fluorescence [z-score]": 0.0797}
{"Oligonucleotide": "GTCGGTTTCGGTTTCGGGACGTGCTAG", "log fluorescence [z-score]": 11.2}
{"Oligonucleotide": "GTAGGTCTCCTACTGCTTTAGTGCTAG", "log fluorescence [z-score]": -0.67}
{"Oligonucleotide": "GACGGTATCGGTCTCGGGTCGTGCTAG", "log fluorescence [z-score]": 5.76}
{"Oligonucleotide": "GACGCTTTCCTTTCCCTGACGTGCTAG", "log fluorescence [z-score]": 1.42}
{"Oligonucleotide": "GACGAGTTCGGGTTTCGAGACGTGCTA", "log fluorescence [z-score]": 1.43}
{"Oligonucleotide": "GACAGTTTCCTACTGCTGACGTGCTAG", "log fluorescence [z-score]": 0.604}
{"Oligonucleotide": "AACGGACTGCTTATCCTGACGTGCTAG", "log fluorescence [z-score]": -0.44}
{"Oligonucleotide": "CCATTTTTCTAGTCCAGACTGTGCTAG", "log fluorescence [z-score]": 0.668}
{"Oligonucleotide": "GACGGTGCCGGTTTCGGGACGTGCTAG", "log fluorescence [z-score]": 2.12}
{"Oligonucleotide": "GACGGACTGGACACTGGAGACGTGCTA", "log fluorescence [z-score]": -0.606}
{"Oligonucleotide": "GACTGTCTCCTTCTCCTGACGTGCTAG", "log fluorescence [z-score]": 0.0496}
{"data": "Study 3", "Molecule": "PhoQ, residues 284 288 289 292 302 303 AQGLTV", "technique": "Sort-seq", "measured": "YFP reporter", "sample": "E. coli", "notes": "PhoQ-PhoP variant library", "together with": "10 µM Mg2+", "reference": "high Mg2+ state", "direction": "higher = stronger signaling"}
{"target": "PhoP, residues 12 14 15 18 19 NFFVT (Escherichia coli, UniProt P23836)", "fold induction": 1.33}
{"target": "PhoP, residues 12 14 15 18 19 TPWTL (Escherichia coli, UniProt P23836)", "fold induction": 1.34}
{"target": "PhoP, residues 12 14 15 18 19 VGHWL (Escherichia coli, UniProt P23836)", "fold induction": 1.02}
{"target": "PhoP, residues 12 14 15 18 19 LHHYF (Escherichia coli, UniProt P23836)", "fold induction": 21.3}
{"data": "Study 4", "target": "Histone acetyltransferase KAT6A, winged helix 1, GST fusion (KAT6A, Homo sapiens, UniProt Q92794, residues 1-85)", "technique": "protein binding microarray", "form": "double-stranded DNA, one strand shown", "sample": "in vitro", "tested at": "not given", "notes": "8-mer, flanks averaged, mean of 2 arrays, mostly near background", "reference": "not given", "direction": "higher = stronger binding", "Target sequence (chain)": "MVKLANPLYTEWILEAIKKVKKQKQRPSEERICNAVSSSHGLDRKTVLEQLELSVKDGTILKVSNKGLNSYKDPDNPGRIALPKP"}
{"Oligonucleotide": "GCTGGTAA", "E-score": -0.0213}
{"Oligonucleotide": "AGTCTGGG", "E-score": -0.405}
{"Oligonucleotide": "ATGCCGGA", "E-score": 0.181}
{"Oligonucleotide": "CGACTGGC", "E-score": 0.0819}
{"Oligonucleotide": "ATCTGGGA", "E-score": -0.191}
{"Oligonucleotide": "GAACGGGA", "E-score": 0.197}
{"Oligonucleotide": "AGCTCTTA", "E-score": -0.0721}
{"Oligonucleotide": "CAAAGGCG", "E-score": 0.142}
{"Oligonucleotide": "AGCGCTCC", "E-score": 0.332}
{"Oligonucleotide": "ACTTCCAT", "E-score": -0.0823}
{"Oligonucleotide": "GGGGAAGA", "E-score": -0.078}
{"Oligonucleotide": "GTGACTAA", "E-score": -0.0191}
{"Oligonucleotide": "CGCGGACG", "E-score": 0.434}
{"Oligonucleotide": "CTCGTCTC", "E-score": -0.0588}
{"Oligonucleotide": "ATTATTCG", "E-score": -0.0764}
{"Oligonucleotide": "GCGGTTAC", "E-score": 0.364}
{"Oligonucleotide": "AACCACAC", "E-score": -0.164}
{"Oligonucleotide": "AGCAAACT", "E-score": -0.186}
{"Oligonucleotide": "AAATGACC", "E-score": -0.204}
{"Oligonucleotide": "CCTGATAA", "E-score": -0.221}
{"Oligonucleotide": "CGCCAAAC", "E-score": 0.106}
{"Oligonucleotide": "AGCAGGGC", "E-score": -0.0498}
{"Oligonucleotide": "ACATCGAA", "E-score": 0.115}
{"Oligonucleotide": "ATGGGACC", "E-score": -0.0952}
{"Oligonucleotide": "CCGTAGTA", "E-score": 0.167}
{"note": "A few entries again (study 2):"}
{"Oligonucleotide": "GGAGGAGCGGGACTGCCACCGTGCTAG", "log fluorescence [z-score]": -0.911}
{"Oligonucleotide": "TTAGATTCCCTTTTCCTTTAGTGCTAG", "log fluorescence [z-score]": 0.865}
{"Oligonucleotide": "ACAAATGGCCAACAAACATTGTGCTAG", "log fluorescence [z-score]": 0.0797}
{"Oligonucleotide": "GTCGGTTTCGGTTTCGGGACGTGCTAG", "log fluorescence [z-score]": 11.2}
{"Oligonucleotide": "GTAGGTCTCCTACTGCTTTAGTGCTAG", "log fluorescence [z-score]": -0.67}
{"Oligonucleotide": "GACGGTATCGGTCTCGGGTCGTGCTAG", "log fluorescence [z-score]": 5.76}
{"Oligonucleotide": "GACGCTTTCCTTTCCCTGACGTGCTAG", "log fluorescence [z-score]": 1.42}
{"Oligonucleotide": "GACGAGTTCGGGTTTCGAGACGTGCTA", "log fluorescence [z-score]": 1.43}
